Published values of several laboratories.
Each numbered part is a random draw from the data of one study; scales do not carry over between parts.

Series 1
Target: RING finger protein unkempt homolog, zinc fingers 1-6, GST-SBP tag (UNK, Homo sapiens, UniProt Q9C0B0, residues 30-357)
Chain of UniProt Q9C0B0 (30-357, looked up): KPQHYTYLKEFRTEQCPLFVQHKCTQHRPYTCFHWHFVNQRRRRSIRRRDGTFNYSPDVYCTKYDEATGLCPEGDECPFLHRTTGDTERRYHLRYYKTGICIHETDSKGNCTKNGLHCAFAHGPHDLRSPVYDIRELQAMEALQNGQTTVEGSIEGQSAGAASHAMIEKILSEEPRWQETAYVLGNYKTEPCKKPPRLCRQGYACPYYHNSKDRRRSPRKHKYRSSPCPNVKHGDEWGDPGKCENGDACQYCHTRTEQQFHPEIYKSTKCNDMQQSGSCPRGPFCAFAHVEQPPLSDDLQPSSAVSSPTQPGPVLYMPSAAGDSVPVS
Technique: RNA Bind-n-Seq
Form: RNA
Medium: in vitro
Concentration: not given
Setting: RNA with constant flanks, human-mouse chimeric sites, ends assumed
Reference: input RNA pool
Reading: higher = stronger binding
Quantity: bound/input enrichment
GGGAGUUCUACAGUCCGACGAUCGGUGGGGUGGUCAUUGCGCCAAUUGAGGCUGAUUUUCAUGAGUCGCCUUCAAAACUCUCGUGUAGGGUUGACAAUGUGGGGGGGUGGGGGAUCCAGCUUAUUCUUUUUCCCCAGCCCCCACAACAGAGGAUUGAGCAUCA: 1.76 ratio
GGGAGUUCUACAGUCCGACGAUCCUCAGAGAUGUGGCAUAUCAGUAUGUGAAAAAGGGGGCUCGAAUUUAUUUGGAAGGGAAAGUGGACUAUGGCGAGUACAUGGAUAAAAACAAUGUGAGGCGGCAAGCAACAACAAUCAUACAACAGAGGAUUGAGCAUCA: 0.364 ratio
GGGAGUUCUACAGUCCGACGAUCGAUAAGAAAAGCUUGUUGGAGACCCGCUUGCACAUCACUGGUAGAGACCUGAGGUGUAAAAUAGCUGAAACUUUCGGAUUUCAAGAAAAUUACAUCAAGAUCGUAAUAAAUAAGAAACAGCAACAGAGGAUUGAGCAUCA: 0.423 ratio
GGGAGUUCUACAGUCCGACGAUCGUGACUGGUGUUAAGAUUUCCCCUCAGCAAAGAAGUGUAGCAGUGACCAUAAUUCCAUCUGUGGUGAGUGCCAGUCAGAUUGUGGAGCUGGUCCCAGACCUCAGUUUAGACAUGGGAACUCAACAGAGGAUUGAGCAUCA: 0.284 ratio

Series 2
Target: Prothrombin, mature alpha-thrombin (F2, Homo sapiens, UniProt P00734)
Technique: aptamer microarray, sandwich
Form: DNA with 2'F-ANA
Medium: in vitro
Concentration: 200 nM
Setting: whole 15-mer aptamer, many near background
Together with: Cy3 exosite-II aptamer, 400 nM
Reading: higher = stronger binding
Quantity: mean fluorescence intensity
Oligonucleotide: GGTTGGTGTGGTTGG
2'F-ANA at 1 2 4 7 9 11 12 13 15: 197 a.u.
2'F-ANA at 1 4 6 7 8 10 12 14: 45.1 a.u.
2'F-ANA at 1 2 4 6 10 11 12 13: 52.6 a.u.
2'F-ANA at 1 4 10 13 14: 44.9 a.u.
2'F-ANA at 3 4 5 7 9 11 14 15: 81 a.u.
2'F-ANA at 3 4 5 8 10 14 15: 53.5 a.u.
2'F-ANA at 1 2 5 9 12 13: 80.7 a.u.
2'F-ANA at 2 6 7 8 9 11 13 15: 280 a.u.
2'F-ANA at 2 3 5 6 8 10 11 14: 73.2 a.u.
2'F-ANA at 5 7 9 10 12 13: 49.1 a.u.
2'F-ANA at 3 4 8 9 10 11 13: 239 a.u.
2'F-ANA at 2 4 5 6 9 11 13 14 15: 52.8 a.u.

Series 3
Target: PABPC1L2, full length, GST fusion (mouse, UniProt A0ABA7IW68)
Technique: RNAcompete
Form: RNA
Medium: in vitro
Concentration: 20 nM
Setting: 7-mer, probes averaged, single round
Reference: mean of 7-mers
Reading: higher = stronger binding
Quantity: 7-mer Z-score
Construct (chain): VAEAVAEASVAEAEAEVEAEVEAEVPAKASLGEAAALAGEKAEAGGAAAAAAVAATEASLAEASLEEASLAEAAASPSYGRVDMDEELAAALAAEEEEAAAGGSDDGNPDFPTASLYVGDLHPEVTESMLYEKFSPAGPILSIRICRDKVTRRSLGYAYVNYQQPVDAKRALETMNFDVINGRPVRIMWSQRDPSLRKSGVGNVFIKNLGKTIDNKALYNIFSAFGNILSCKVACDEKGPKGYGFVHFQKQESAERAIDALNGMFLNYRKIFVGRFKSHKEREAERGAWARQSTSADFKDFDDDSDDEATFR
CACGGGC: 0.178
AUGGCCA: -0.144
CACCUGC: -0.115
CAAGAGU: -0.104
GCGCGGU: -0.0645
CAAUAUC: -0.0246
CCUUAUA: -0.342

Further values, each from its own experiment
PhoQ, residues 284 288 289 292 302 303 SVTLVV — fold induction (PhoP, residues 12 14 15 18 19 LQHIR (Escherichia coli, UniProt P23836); Sort-seq, measured: YFP reporter; E. coli; PhoQ-PhoP variant library, together with: 10 µM Mg2+; reference: high Mg2+ state, higher = stronger signaling): 6.02
